Experimental data pooled from the literature.
Each numbered part is a random draw from the data of one study; scales do not carry over between parts. Values joined by “and” are separate records of one study, mostly repeats; a detail may differ.
Chain of UniProt P35968 (whole entry, looked up): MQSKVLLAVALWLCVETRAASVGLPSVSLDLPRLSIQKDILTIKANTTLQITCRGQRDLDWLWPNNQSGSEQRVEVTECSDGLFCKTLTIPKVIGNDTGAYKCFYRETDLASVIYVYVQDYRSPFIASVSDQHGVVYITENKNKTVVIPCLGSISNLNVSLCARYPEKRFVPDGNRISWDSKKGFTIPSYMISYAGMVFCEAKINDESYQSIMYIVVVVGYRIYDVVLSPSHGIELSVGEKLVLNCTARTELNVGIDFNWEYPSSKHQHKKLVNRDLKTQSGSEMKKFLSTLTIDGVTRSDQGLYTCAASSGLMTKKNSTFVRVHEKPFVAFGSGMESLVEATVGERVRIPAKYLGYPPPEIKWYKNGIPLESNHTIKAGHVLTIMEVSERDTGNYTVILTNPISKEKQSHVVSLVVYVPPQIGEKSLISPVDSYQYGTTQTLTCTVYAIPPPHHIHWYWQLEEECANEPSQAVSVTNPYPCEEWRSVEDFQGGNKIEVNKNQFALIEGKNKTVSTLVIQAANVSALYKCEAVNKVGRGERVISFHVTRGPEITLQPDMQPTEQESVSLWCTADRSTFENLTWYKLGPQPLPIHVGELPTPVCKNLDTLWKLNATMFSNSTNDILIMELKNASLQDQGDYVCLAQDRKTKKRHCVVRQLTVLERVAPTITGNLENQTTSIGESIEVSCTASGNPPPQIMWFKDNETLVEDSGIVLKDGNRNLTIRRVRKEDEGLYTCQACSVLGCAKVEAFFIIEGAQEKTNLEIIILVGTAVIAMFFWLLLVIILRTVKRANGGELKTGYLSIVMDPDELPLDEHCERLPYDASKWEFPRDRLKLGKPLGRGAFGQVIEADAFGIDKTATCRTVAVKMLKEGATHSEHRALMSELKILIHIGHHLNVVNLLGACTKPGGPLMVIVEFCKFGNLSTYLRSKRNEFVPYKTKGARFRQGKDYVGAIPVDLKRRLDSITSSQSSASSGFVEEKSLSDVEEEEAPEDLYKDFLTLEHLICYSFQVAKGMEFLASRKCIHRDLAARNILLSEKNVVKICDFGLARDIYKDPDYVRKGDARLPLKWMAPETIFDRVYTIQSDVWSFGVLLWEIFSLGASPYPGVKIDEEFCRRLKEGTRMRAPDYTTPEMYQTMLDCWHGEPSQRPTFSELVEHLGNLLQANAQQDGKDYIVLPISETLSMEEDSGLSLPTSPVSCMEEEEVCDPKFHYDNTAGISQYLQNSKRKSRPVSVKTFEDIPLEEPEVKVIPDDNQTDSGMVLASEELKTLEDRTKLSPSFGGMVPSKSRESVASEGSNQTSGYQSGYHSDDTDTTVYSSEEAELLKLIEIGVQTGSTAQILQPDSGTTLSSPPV
Chain of UniProt O43353 (whole entry, looked up): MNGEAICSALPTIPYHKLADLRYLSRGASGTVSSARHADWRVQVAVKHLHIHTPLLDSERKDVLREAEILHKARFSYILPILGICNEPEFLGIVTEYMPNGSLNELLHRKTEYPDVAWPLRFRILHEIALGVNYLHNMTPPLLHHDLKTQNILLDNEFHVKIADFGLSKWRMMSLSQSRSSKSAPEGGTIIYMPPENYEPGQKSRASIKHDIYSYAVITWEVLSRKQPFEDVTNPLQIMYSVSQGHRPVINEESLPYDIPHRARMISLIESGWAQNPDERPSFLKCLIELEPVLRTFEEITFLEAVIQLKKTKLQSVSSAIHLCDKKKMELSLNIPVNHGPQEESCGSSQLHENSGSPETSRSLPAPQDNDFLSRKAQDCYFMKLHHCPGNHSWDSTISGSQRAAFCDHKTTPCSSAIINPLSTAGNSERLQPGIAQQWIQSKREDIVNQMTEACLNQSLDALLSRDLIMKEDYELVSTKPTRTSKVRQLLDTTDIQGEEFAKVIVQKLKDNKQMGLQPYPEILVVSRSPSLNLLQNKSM
Chain of UniProt Q5S007 (whole entry, unmodified, looked up): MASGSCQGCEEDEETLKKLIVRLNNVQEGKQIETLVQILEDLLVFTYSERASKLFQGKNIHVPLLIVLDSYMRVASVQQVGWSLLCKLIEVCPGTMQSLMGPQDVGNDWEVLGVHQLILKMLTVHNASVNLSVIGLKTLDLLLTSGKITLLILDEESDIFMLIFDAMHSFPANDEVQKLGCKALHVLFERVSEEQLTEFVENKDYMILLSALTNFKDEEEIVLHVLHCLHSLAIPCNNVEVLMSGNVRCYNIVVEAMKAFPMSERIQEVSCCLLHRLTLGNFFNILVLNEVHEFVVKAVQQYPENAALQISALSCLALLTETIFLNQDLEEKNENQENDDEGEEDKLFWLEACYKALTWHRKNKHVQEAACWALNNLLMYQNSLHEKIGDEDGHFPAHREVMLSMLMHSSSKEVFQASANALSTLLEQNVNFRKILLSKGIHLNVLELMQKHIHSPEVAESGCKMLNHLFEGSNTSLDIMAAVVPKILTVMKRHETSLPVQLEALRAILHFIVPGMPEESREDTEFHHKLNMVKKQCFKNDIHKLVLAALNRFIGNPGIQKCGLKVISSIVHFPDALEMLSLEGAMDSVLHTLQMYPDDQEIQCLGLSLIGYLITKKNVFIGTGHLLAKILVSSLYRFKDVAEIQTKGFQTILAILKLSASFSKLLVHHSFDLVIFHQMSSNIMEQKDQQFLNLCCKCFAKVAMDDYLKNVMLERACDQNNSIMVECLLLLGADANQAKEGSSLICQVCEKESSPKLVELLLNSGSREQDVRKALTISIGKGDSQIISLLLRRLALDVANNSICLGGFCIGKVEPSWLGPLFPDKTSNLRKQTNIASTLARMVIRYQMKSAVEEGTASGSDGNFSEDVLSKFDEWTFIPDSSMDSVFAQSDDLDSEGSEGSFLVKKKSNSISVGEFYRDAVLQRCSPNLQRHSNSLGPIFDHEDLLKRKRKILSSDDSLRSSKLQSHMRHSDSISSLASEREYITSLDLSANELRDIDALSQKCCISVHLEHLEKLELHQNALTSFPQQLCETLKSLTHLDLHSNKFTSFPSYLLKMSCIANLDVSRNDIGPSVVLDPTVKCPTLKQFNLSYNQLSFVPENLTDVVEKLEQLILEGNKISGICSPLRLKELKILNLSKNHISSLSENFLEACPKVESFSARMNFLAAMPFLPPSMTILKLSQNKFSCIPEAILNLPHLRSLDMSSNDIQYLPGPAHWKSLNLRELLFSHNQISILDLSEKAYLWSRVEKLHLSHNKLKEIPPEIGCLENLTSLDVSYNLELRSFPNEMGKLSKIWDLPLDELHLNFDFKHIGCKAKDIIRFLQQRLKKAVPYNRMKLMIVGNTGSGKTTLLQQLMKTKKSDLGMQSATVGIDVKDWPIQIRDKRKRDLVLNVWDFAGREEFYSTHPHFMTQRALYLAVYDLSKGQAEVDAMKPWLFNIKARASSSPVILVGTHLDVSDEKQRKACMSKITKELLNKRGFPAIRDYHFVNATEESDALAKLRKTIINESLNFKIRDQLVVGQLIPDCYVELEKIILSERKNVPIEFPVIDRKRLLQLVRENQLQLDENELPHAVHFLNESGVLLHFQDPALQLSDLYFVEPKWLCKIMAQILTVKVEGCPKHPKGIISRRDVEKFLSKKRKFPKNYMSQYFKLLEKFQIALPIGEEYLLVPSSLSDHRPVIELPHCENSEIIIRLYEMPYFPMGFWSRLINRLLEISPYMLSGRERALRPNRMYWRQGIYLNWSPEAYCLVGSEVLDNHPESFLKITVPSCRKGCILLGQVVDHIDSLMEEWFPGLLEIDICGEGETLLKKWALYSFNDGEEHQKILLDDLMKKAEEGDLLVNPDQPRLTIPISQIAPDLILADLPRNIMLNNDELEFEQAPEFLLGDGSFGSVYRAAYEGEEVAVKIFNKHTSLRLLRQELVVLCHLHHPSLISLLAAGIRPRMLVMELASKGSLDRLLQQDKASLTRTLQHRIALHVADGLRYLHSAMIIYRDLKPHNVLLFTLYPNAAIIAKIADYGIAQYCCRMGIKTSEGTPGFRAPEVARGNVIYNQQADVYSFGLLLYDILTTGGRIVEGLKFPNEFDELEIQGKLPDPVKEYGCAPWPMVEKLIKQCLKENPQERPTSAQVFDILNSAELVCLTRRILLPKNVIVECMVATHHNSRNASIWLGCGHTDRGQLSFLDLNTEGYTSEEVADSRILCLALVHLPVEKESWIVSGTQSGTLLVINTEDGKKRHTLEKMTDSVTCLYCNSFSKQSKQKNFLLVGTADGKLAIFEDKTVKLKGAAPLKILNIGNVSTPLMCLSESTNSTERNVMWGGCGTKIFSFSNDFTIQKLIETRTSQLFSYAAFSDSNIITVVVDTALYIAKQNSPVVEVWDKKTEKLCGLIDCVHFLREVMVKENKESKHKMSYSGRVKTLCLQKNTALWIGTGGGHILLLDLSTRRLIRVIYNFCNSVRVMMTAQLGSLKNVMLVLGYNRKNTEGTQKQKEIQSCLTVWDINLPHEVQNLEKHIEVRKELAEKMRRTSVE
Chain of UniProt Q8TD08 (whole entry, looked up): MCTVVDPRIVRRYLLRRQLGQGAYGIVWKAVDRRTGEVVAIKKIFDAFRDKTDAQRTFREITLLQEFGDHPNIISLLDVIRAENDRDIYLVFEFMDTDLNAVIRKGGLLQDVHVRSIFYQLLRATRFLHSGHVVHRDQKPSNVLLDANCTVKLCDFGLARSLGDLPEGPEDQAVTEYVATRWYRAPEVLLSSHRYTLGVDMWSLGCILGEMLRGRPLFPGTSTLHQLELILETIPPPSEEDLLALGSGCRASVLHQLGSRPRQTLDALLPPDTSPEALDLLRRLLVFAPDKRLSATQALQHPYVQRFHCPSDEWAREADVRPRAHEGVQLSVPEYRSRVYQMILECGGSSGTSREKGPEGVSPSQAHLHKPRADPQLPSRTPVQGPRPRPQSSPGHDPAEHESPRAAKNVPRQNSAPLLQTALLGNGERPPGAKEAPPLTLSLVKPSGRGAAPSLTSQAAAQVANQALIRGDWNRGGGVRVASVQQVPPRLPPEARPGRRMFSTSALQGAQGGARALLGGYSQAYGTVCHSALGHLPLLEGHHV

Block 1 — observed: enzyme activity; action: inhibitor; tested at: 0.5 µM; relative to: control
Target: Serine/threonine-protein kinase MARK2 (MARK2, Homo sapiens, UniProt Q7KZI7)
Residues (Q7KZI7 1-788): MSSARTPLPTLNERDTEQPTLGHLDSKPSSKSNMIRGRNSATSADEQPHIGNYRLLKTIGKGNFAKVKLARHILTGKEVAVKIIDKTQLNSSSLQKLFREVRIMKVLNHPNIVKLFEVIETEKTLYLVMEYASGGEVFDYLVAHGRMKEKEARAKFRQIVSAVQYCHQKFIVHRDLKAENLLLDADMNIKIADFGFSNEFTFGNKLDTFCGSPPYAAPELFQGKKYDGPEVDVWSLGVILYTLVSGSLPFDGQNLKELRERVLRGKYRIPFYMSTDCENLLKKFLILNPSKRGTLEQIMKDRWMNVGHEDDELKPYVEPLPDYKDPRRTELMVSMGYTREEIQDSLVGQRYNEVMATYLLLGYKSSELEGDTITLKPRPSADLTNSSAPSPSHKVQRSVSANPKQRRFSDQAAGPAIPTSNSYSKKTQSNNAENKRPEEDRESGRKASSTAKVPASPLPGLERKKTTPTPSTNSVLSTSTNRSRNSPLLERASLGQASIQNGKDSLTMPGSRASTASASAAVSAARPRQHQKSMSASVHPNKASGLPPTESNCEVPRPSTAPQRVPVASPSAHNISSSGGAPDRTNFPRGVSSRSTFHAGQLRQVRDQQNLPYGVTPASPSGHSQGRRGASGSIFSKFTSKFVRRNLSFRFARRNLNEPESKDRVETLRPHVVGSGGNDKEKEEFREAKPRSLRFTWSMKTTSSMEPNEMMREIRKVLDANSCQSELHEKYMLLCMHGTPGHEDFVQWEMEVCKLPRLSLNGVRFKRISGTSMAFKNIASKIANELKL
SMILES | remaining activity
O=c1c2ccccc2[nH]c(=S)n1CCN1CCC(=C(c2ccc(F)cc2)c2ccc(F)cc2)CC1 | 108%
COc1cc2ncnc(Nc3ccc(Oc4ccccc4)cc3)c2cc1OC | 95.3%
Nc1[nH]nc2nc3ccccc3nc12 | 110%
COc1cc2ncnc(Nc3ccc(F)c(Cl)c3)c2cc1OCCCN1CCOCC1 | 119%
OCC(O)CCON=C1C(c2c(O)[nH]c3ccccc23)=Nc2ccccc21 (centres unmarked) | 57.4%
O=C(O)c1ccc2c3c1cccc3c(=O)n1c3ccccc3nc21 | 87.7%
N#CC(C#N)=C(N)/C(C#N)=C/c1ccc(O)cc1 | 91.3%
O=C1NC(=O)C(c2cn(CCCn3ccnc3)c3ccccc23)=C1Nc1ccccc1 | 97.1%
Nc1ncnc2n[nH]c(Nc3ccc(F)cc3)c12 | 87%
Nc1ccc2ncnc(NCCc3ccc(Oc4ccccc4)cc3)c2c1 | 84.9%
Cc1nc(-c2ccccc2)c(-c2ccncc2)o1 | 94.3%
Cc1ccc(Nc2nccc(N(C)c3ccc4c(C)n(C)nc4c3)n2)cc1S(N)(=O)=O | 111%
O=C(CCCc1ccc(-c2ccccc2F)cc1)Nc1ccc(O)cc1 | 91.5%
Cn1c2ccccc2c2c3c(c4c5ccccc5n(CCC#N)c4c21)CNC3=O | 11.8%
CC(C)[C@H](CO)Nc1nc(Nc2cc(N)cc(Cl)c2)c2ncn(C(C)C)c2n1 | 74.1%

Block 2 — host: human; matrix: microsomes or S9; tested at: 2 µM; time: 0.5 h
SMILES | remaining compound [%]
CC(C)Oc1cccc(/C=C(/F)Oc2ccc(OC[C@@H]3C[C@@](Cn4cncn4)(c4ccc(Cl)cc4Cl)N(C)O3)cc2)c1 | 11.4
CC(C)n1nc(CNc2ccc(Cl)cc2)[nH]c1=O | 67.6
CCCN1C(=O)C2(C(C(=O)c3ccc4c(c3)CC(C)O4)=C(O)C(=O)N2CC2CCCO2)c2ccccc21 (centres unmarked) | 81.2
c1ccc(-c2cc(CNCC3COCCO3)c3nnnn3c2)cc1 (centres unmarked) | 48.1
O=c1cc(-c2ccc(F)cc2)ncn1C1CCCC1 | 4.35

Block 3 — observed: cell-free assay; method: competition with immobilised ligand; tested at: 0.1 µM
SMILES: CS(=O)(=O)N1CCCC(NC(=O)[C@H](CCC2CCCCC2)NC(=O)c2ccc(CNc3ncnc4c3nnn4-c3ccccc3)cc2)C1 (some centres unmarked)
target | remaining binding [%]
RIPK2 (Homo sapiens, UniProt O43353) | 59
Tyrosine-protein kinase ABL1, non-phosphorylated (ABL1, Homo sapiens, UniProt P00519, H396P) | 99
MAPK15 (Homo sapiens, UniProt Q8TD08) | 100
KDR (Homo sapiens, UniProt P35968) | 85
LRRK2 (Homo sapiens, UniProt Q5S007, G2019S) | 100

Block 4 — observed: binding; action: competitor; method: NanoBRET; cell line: HEK293
Structure (SMILES): CC(C)C(=O)N1CCN(c2nc(OC[C@@H]3CCCN3C)nc3c2CCN(c2cccc4cccc(Cl)c24)C3)C[C@@H]1CC#N
KRAS Q61H: GTPase KRas (KRAS, Homo sapiens, UniProt P01116, Q61H)
target | setting | normalized BRET
KRAS Q61H | 1.69 nM | 102% and 103% and 96.3%
KRAS Q61H | 5.08 nM | 99.2% and 97.4% and 107%
KRAS Q61H | 137 nM | 102% and 96.8% and 95.2%
GTPase KRas (KRAS, Homo sapiens, UniProt P01116, G12D) | 5.08 nM | 97.3% and 101% and 90.7%
KRAS Q61H | 15.2 nM | 107% and 94% and 92.9%
GTPase KRas (KRAS, Homo sapiens, UniProt P01116, G13D) | 33.3 µM | 59.6% and 55.6% and 43.2%

Block 5 — tested at: 1 µM
SMILES: CN1CCN(C(=O)c2ccc(NC(=O)Nc3ccc(N(C)c4ccnc(Nc5ccc(CS(C)(=O)=O)cc5)n4)cc3)cc2)CC1
ABL1 F317L: Tyrosine-protein kinase ABL1 (ABL1, Homo sapiens, UniProt P00519, F317L)
target | test | remaining binding [%]
ABL1 F317L | binding | 34
ABL1 F317L | – | 51
FGFR1 (Homo sapiens, UniProt P11362) | binding, competition with immobilised ligand | 100
AAK1 (Homo sapiens, UniProt Q2M2I8) | binding, competition with immobilised ligand | 19

Repeated from above (block 1):
SMILES | remaining activity
COc1cc2ncnc(Nc3ccc(Oc4ccccc4)cc3)c2cc1OC | 95.3%
Nc1[nH]nc2nc3ccccc3nc12 | 110%
COc1cc2ncnc(Nc3ccc(F)c(Cl)c3)c2cc1OCCCN1CCOCC1 | 119%
OCC(O)CCON=C1C(c2c(O)[nH]c3ccccc23)=Nc2ccccc21 (centres unmarked) | 57.4%
O=C(O)c1ccc2c3c1cccc3c(=O)n1c3ccccc3nc21 | 87.7%
